{"data": "Published values pooled from the literature", "note": "Each numbered part is a random draw from the data of one study; scales do not carry over between parts."}
{"data": "Block 1", "target": "Ras GTPase-activating protein-binding protein 1, full length (G3BP1, Homo sapiens, UniProt Q13283)", "technique": "RNA Bind-n-Seq", "molecule type": "RNA", "matrix": "in vitro", "tested at": "200 nM", "setting": "whole 134-nt RNA, ends assumed", "added": "150 mM LiCl", "relative to": "input library", "direction": "higher = stronger binding", "library": "7-deaza-guanosine replaces G", "constant ends, left off below": "GGGAGUUCUACAGUCCGACGAUC … UGGAAUUCUCGGGUGUCAAGG", "UniProt Q13283, sequence (whole entry, looked up)": "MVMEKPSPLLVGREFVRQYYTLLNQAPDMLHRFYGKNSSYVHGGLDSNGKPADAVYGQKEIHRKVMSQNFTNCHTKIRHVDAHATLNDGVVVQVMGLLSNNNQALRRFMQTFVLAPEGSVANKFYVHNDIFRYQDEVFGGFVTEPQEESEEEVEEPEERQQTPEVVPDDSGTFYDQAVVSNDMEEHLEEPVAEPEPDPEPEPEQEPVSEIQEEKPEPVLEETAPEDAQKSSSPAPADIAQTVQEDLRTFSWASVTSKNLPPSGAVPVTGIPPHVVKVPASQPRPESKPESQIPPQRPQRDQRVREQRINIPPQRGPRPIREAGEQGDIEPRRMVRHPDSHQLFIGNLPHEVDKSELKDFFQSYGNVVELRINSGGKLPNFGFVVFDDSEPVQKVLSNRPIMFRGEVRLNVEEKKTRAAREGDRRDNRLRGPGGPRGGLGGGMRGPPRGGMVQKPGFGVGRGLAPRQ"}
{"Sequence": "AAGUCCUGUGCUACACAUCGUAUGUACCGAAUCGGGAAAAAGGGAAAAAGGGUGGGAAAGUAUUAUGUUACGCCGUUCGGAUCUGCACUU", "log2 enrichment": -0.331}
{"Sequence": "UGGCCCUGGUGGCAUGCGGGGAGGAAGAGGUGGCCUCAUGGAUCGUGGUGGUCCCGGUGGAAUGUUGAGAGGUGGCCGUGGUGGAGACAG", "log2 enrichment": 0.182}
{"Sequence": "UCAAGUCCUGUGCUACACAUCGUAUGUACCGAAUCGGUUUGGAAAAAGGAAAGGAAAGUAUUAUGUUACGCCGUUCGGAUCUGCACUUCC", "log2 enrichment": -0.701}
{"Sequence": "UGGCCCUGGUGGCAUGCGGGGAGGAAGAGGUGGCCUCAUGGAUCGUGGUGGUCCCGGUGGAAUGUUCAGAGGUGGCCGUGGUGGAGACAA", "log2 enrichment": 0.391}
{"Sequence": "GUCCUGUGCUACACAUCGUAUGUACCGAAUCGGGGAAAAAGGGGUUUUUGGGGAGGGGAAAGUAUUAUGUUACGCCGUUCGGAUCUGCAC", "log2 enrichment": -0.646}
{"Sequence": "ACCAUGCAGGUGGGCAUCUUUGGGAAGUGCGGCAAGGGGGGGAUAGGGAGGGGGGUAACACUUUGGGAACAGGUGGUCCCAGGUCGUUUC", "log2 enrichment": 0.232}
{"Sequence": "ACCAUGCAGGUGGGCAUCUUUGGGAAGUGGGGCAAGGGGGGGAUAGGGAGGGCGGUAACACUUUGGGAACAGGUGGUCCCAGGUCGUUUC", "log2 enrichment": 0.0157}
{"data": "Block 2", "target": "Interferon regulatory factor 7, full length, phosphomimetic (IRF7, Homo sapiens, UniProt Q92985, residues 1-503, S101K/S471D/S472D/S475D/S476D/S477D/S483D/S484D/S487D)", "technique": "protein-binding microarray", "molecule type": "double-stranded DNA, one strand shown", "matrix": "in vitro", "tested at": "250 nM", "setting": "60-bp whole probe", "added": "salmon DNA 0.4 mg/ml", "relative to": "random background probes", "direction": "higher = stronger binding", "constant ends, left off below": "GCCTAGCAC … GTCTTGATTCGCTTGACGCTGCTG", "UniProt Q92985, sequence (whole entry, unmodified, looked up)": "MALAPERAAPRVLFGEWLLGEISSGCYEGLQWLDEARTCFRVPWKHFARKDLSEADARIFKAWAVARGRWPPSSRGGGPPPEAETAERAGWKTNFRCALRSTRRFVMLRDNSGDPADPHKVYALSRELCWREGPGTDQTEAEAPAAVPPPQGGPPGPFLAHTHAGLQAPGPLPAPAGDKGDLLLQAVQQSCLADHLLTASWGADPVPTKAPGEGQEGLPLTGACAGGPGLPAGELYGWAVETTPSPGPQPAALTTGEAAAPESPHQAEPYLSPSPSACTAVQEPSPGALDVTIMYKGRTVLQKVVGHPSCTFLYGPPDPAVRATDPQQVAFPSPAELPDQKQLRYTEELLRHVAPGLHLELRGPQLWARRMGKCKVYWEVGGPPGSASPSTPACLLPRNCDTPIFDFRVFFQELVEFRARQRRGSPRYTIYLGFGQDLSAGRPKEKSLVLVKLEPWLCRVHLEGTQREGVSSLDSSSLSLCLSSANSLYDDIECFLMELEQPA"}
{"Sequence": "AACGATATCAGACTGGAGACGTGCTAG", "log fluorescence": "-0.413 z-score"}
{"Sequence": "CTGCATCTGATTTCTCAAACAGTGCTA", "log fluorescence": "0.244 z-score"}
{"Sequence": "GACGATTTCACTCTCGAGACGTGCTAG", "log fluorescence": "0.32 z-score"}
{"Sequence": "TGTGGCTTAGTTTGTCAAAAAGTGCTA", "log fluorescence": "0.0886 z-score"}
{"Sequence": "GGGACTTTGAATTAGAAAGAGTGCTAG", "log fluorescence": "-0.0512 z-score"}
{"Sequence": "TTAGGTTTCGGTTTCGGCTAGTGCTAG", "log fluorescence": "14.3 z-score"}
{"Sequence": "GACGGTTTCGGGTTTCAGGACGTGCTA", "log fluorescence": "11.2 z-score"}
{"Sequence": "GACGGACTGGGGACTGCGGACGTGCTA", "log fluorescence": "-0.846 z-score"}
{"Sequence": "TTAGTTTTCAGTCTCGATTAGTGCTAG", "log fluorescence": "3.78 z-score"}
{"Sequence": "GACGAACTGAGTTTCGAGGCGTGCTAG", "log fluorescence": "2.01 z-score"}
{"Sequence": "TTAGATTCCGGTTTCGGTTAGTGCTAG", "log fluorescence": "10.4 z-score"}
{"Sequence": "CCCTGTGTCCACAGCTGGATGTGCTAG", "log fluorescence": "0.0546 z-score"}
{"Sequence": "CTCAAGATTCCTCTCACCTCGTGCTAG", "log fluorescence": "0.496 z-score"}
{"Sequence": "GACGGTTTCGGGACTTGGGACGTGCTA", "log fluorescence": "3.84 z-score"}
{"data": "Block 3", "target": "GDNF-inducible zinc finger protein 1, full length (GZF1, Homo sapiens, UniProt Q9H116, residues 1-711)", "technique": "protein-binding microarray", "molecule type": "hairpin DNA", "matrix": "in vitro", "tested at": "not given", "setting": "whole hairpin DNA, median over replicate spots", "relative to": "not given", "direction": "higher = stronger binding", "Residues (chain)": "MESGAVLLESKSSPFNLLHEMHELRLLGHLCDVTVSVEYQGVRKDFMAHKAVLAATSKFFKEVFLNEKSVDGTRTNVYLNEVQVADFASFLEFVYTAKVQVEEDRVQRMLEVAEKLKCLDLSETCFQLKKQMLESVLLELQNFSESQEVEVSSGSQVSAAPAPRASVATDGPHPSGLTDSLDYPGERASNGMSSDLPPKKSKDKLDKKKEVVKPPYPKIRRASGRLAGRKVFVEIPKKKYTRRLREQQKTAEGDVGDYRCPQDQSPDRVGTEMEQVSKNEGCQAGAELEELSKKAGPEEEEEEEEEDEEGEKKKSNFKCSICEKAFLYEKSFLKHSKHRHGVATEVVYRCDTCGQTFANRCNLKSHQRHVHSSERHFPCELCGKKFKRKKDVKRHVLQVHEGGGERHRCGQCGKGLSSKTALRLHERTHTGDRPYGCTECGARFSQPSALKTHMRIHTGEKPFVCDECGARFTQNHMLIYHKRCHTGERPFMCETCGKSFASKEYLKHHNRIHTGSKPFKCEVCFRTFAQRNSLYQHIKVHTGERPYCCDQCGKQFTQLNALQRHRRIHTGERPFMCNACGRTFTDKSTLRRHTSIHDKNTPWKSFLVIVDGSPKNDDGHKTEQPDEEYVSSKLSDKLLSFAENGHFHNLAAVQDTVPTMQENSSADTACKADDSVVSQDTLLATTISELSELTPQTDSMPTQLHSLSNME"}
{"Sequence": "GAGGCCATTACCGTAATGCCTCCTGGCATTACGGTAATGGCCTCACACTC", "median fluorescence [a.u.]": 788}
{"Sequence": "GAGGCCATTACGGTCGTGCCTCCTGGCACGACCGTAATGGCCTCACACTC (5mC at 15)", "median fluorescence [a.u.]": 571}
{"Sequence": "GAGGCCATTACGGTACTGCCTCCTGGCAGTACCGTAATGGCCTCACACTC", "median fluorescence [a.u.]": 660}
{"Sequence": "GAGGCCCGTACGGTAATGCCTCCTGGCATTACCGTACGGGCCTCACACTC (5mC at 7)", "median fluorescence [a.u.]": 752}
{"Sequence": "GAGGCCATTACGGTGATGCCTCCTGGCATCACCGTAATGGCCTCACACTC", "median fluorescence [a.u.]": 528}
{"Sequence": "GAGGCCATTACGGTGATGCCTCCTGGCATCACCGTAATGGCCTCACACTC (5mC at 30)", "median fluorescence [a.u.]": 600}
{"Sequence": "GAGGCCCGTACGGTAATGCCTCCTGGCATTACCGTACGGGCCTCACACTC", "median fluorescence [a.u.]": 726}
{"Sequence": "GAGGCCATTACCGTAATGCCTCCTGGCATTACGGTAATGGCCTCACACTC (5mC at 12 32)", "median fluorescence [a.u.]": 528}
{"Sequence": "GAGGCCGTTACGGTAATGCCTCCTGGCATTACCGTAACGGCCTCACACTC (5mC at 38)", "median fluorescence [a.u.]": 748}
{"data": "Single results of other studies"}
{"Molecule": "PhoQ, residues 284 288 289 292 302 303 SSCCRF", "target": "PhoP, residues 12 14 15 18 19 VGHWL (Escherichia coli, UniProt P23836)", "assay": "Sort-seq, refers to: YFP reporter", "system": "E. coli", "setting": "PhoQ-PhoP variant library, added: 10 µM Mg2+", "scale": "relative to: high Mg2+ state, higher = stronger signaling", "measurement": "fold induction", "value": 3.6}
{"note": "Excerpt of the above (block 2):"}
{"Sequence": "GACGAACTGAGTTTCGAGGCGTGCTAG", "log fluorescence": "2.01 z-score"}
{"Sequence": "GACGGACTGGGGACTGCGGACGTGCTA", "log fluorescence": "-0.846 z-score"}
